Measured values pooled from the literature.
Compare with care: the assays were run in different laboratories. Numbers after ± are the reported error.
SCN9A: Sodium channel protein type 9 subunit alpha (SCN9A, Homo sapiens, UniProt Q15858)
bglR: Beta-glucuronidase (bglR, Clostridium perfringens, UniProt Q8XP19)
OPG122: mRNA-decapping protein OPG122 (OPG122, Vaccinia virus, UniProt P04312)
Replicase polyprotein 1a papain-like protease: Replicase polyprotein 1a, papain-like protease (Severe acute respiratory syndrome coronavirus 2, UniProt P0DTC1)

COCCOc1cc(OCCOC)cc(C(=O)NCCOC(=O)[C@@H]2CCCCN2S(=O)(=O)Cc2ccccc2)c1 — IC50 (Peptidyl-prolyl cis-trans isomerase (Burkholderia pseudomallei, UniProt Q63J95); enzyme activity, inhibitor): 580 nM
CC(C)C[C@H](NC(=O)[C@H](CC(=O)O)NC(=O)[C@H](Cc1ccc(O)cc1)NC(=O)[C@H](CCCCN)NC(=O)[C@@H]1CSSC[C@@H]2NC(=O)[C@H](CCCCN)NC(=O)[C@H](CC(=O)O)NC(=O)[C@H](CC(N)=O)NC(=O)[C@H](CO)NC(=O)[C@@H]3CCCN3C(=O)[C@H](CC(N)=O)NC(=O)[C@@H]3CSSC[C@H](NC(=O)[C@H](C(C)C)NC(=O)[C@H](CC(C)C)NC(=O)[C@H](CO)NC(=O)[C@H](CO)NC(=O)[C@H](CO)NC(=O)[C@H](CCCCN)NC(=O)[C@H](CSSC[C@H](NC(=O)[C@H](C)N)C(=O)N[C@@H](CC(C)C)C(=O)NCC(=O)N[C@@H](Cc4ccccc4)C(=O)NCC(=O)N[C@@H](CCC(=O)O)C(=O)N[C@@H](CCCCN)C(=O)N3)NC2=O)C(=O)N[C@@H](CO)C(=O)N[C@@H](CCC(N)=O)C(=O)N[C@@H](CCCCN)C(=O)N[C@@H](CCCCN)C(=O)N[C@@H](CCCCN)C(=O)N[C@@H](Cc2c[nH]c3ccccc23)C(=O)N1)C(=O)O — IC50 (SCN9A; ion current, inhibitor, patch clamp): > 20000 nM
C[C@@H]1CN(c2nnnc3c2sc2nc(N4CCOCC4)c4c(c23)CCCC4)CCN1 — IC50 (bglR): 900 ± 100 nM
CC[C@H](C)[C@@H]1NC(=O)[C@H](CCCNC(=N)N)NC(=O)[C@H](CO)NC(=O)[C@H](CCC(=O)O)NC(=O)[C@H](CC(=O)O)NC(=O)CNC(=O)CNC(=O)[C@H]([C@@H](C)O)NC(=O)[C@H](Cc2ccccc2)NC(=O)[C@H](CO)NC(=O)[C@H]([C@@H](C)O)NC(=O)[C@H](C)NC(=O)[C@@H]2CSSC[C@@H](C(=O)N[C@@H](Cc3ccc(O)cc3)C(=O)N[C@@H](Cc3ccccc3)C(=O)N[C@H](C(=O)N[C@H](C(=O)NCC(=O)O)[C@@H](C)O)[C@@H](C)O)NC(=O)[C@H]([C@@H](C)O)NC(=O)[C@H](CSSC[C@H](NC(=O)[C@H](CCC(=O)O)NC(=O)[C@H](CO)NC(=O)[C@H](CCCCN)NC(=O)[C@H](Cc3ccc(O)cc3)NC(=O)[C@@H]3CCCN3C(=O)[C@H](Cc3ccccc3)NC(=O)[C@H](CCCCN)NC(=O)[C@H](CCCNC(=N)N)NC(=O)[C@H](CCCCN)NC(=O)[C@H](CCCCN)NC(=O)[C@H](Cc3ccc(O)cc3)NC(=O)[C@@H]3CCCN3C(=O)[C@@H](NC(=O)[C@H](CC(=O)O)NC(=O)[C@H](CCCCN)NC(=O)[C@H](CCCCN)NC(=O)[C@@H](NC(=O)[C@@H](NC(=O)[C@@H](N)CCC(=O)O)C(C)C)[C@@H](C)CC)[C@@H](C)O)C(=O)N[C@@H](CC(C)C)C(=O)N[C@@H](CCCCN)C(=O)N[C@@H](C)C(=O)N2)NC(=O)[C@H](CCCCN)NC(=O)[C@H](Cc2ccccc2)NC(=O)[C@H](Cc2ccccc2)NC(=O)CNC(=O)[C@@H]2CCCN2C(=O)[C@H](CCCCN)NC(=O)CNC(=O)[C@H](CCC(=O)O)NC(=O)[C@H](CCC(N)=O)NC1=O — IC50 (Potassium voltage-gated channel subfamily KQT member 5 (KCNQ5, Homo sapiens, UniProt Q9NR82); ion current, inhibitor, patch clamp): 2700 nM
CSc1nc(N)nc2c1ncn2C1OC(COP(=O)(O)OP(=O)(O)OP(=O)(O)O)C(O)C1O (stereo not drawn) — IC50 (OPG122): > 200000 nM
CC[C@H](C)[C@H](NC(=O)[C@H](CCCCN)NC(=O)[C@H](Cc1ccccc1)NC(=O)[C@H](CC(=O)O)NC(=O)[C@@H](NC(=O)[C@H](CC(N)=O)NC(=O)[C@@H](N)CO)[C@@H](C)CC)C(=O)N[C@@H](CCCCN)C(=O)N[C@@H](CCCCN)C(=O)O — IC50 (HLA class I histocompatibility antigen, A alpha chain, allele A*29:02 (Homo sapiens, UniProt P04439); biochemical): > 10000 nM
Nc1nc2c(nc(Br)n2C2OC(COP(=O)(O)OP(=O)(O)OP(=O)(O)O)C(O)C2O)c(=O)[nH]1 (stereo not drawn) — IC50 (OPG122): > 200000 nM
CC[C@H](C)[C@H](NC(=O)[C@H](Cc1c[nH]cn1)NC(=O)[C@H](Cc1ccc(O)cc1)NC(=O)[C@H](CCCCN)NC(=O)[C@@H]1CSSC[C@@H]2NC(=O)[C@H](CCC(=O)O)NC(=O)[C@H](CC(=O)O)NC(=O)[C@H](C)NC(=O)CNC(=O)[C@H](Cc3ccc(O)cc3)NC(=O)[C@H](CCCCN)NC(=O)[C@@H]3CSSC[C@H](NC(=O)[C@H](C(C)C)NC(=O)[C@H](Cc4ccc(O)cc4)NC(=O)CNC(=O)[C@H](CCCCN)NC(=O)[C@H](CSSC[C@H](NC(=O)[C@@H](N)CO)C(=O)N[C@@H](CCCCN)C(=O)NCC(=O)N[C@@H](Cc4c[nH]c5ccccc45)C(=O)N[C@@H](Cc4ccccc4)C(=O)N[C@@H](CC(N)=O)C(=O)N[C@@H](CCC(=O)O)C(=O)N3)NC2=O)C(=O)N[C@@H](CO)C(=O)N[C@@H](CCCCN)C(=O)N[C@@H](CCCNC(=N)N)C(=O)N[C@@H](CC(=O)O)C(=O)NCC(=O)N[C@@H](Cc2c[nH]c3ccccc23)C(=O)N1)C(=O)N[C@@H](CC(N)=O)C(=O)O — IC50 (SCN9A; ion current, inhibitor, patch clamp): 1030 nM
c1cn(Cc2ccc(-c3ccc4occc4c3)cc2)cn1 — IC50 (Mycocyclosin synthase (cyp121, Mycobacterium tuberculosis, UniProt P9WPP7); mycocyclosin formation, inhibitor, LC-MS/MS; with: cYY 20 µM): 23000 nM
CC1=C(C(=O)Nc2ccc(C)cc2)C(c2ccccc2Br)NC(=S)N1 (stereo not drawn) — IC50 (Angiotensin-converting enzyme 2, with SARS-CoV-2 spike RBD (ACE2, Homo sapiens, UniProt Q9BYF1); inhibitor): 15.5 ± 1.37 nM
Cc1ccc(N)cc1C(=O)NC1(c2ccc3c4c(cccc24)CC3)CC1 — IC50 (Replicase polyprotein 1a papain-like protease; cell-free assay): 143 nM
CCCCCCCCOC1OC(C)C(OC2OC(C)C(OC3OC(C)C(OC4OC(C)C(OS(=O)(=O)O)C(OS(=O)(=O)O)C4OS(=O)(=O)O)C(OS(=O)(=O)O)C3OS(=O)(=O)O)C(OS(=O)(=O)O)C2OS(=O)(=O)O)C(OS(=O)(=O)O)C1OS(=O)(=O)O (stereo not drawn) — IC50 (Spike glycoprotein (Severe acute respiratory syndrome coronavirus 2, UniProt P0DTC2)): 30300 nM
Nc1ccc(Cl)cc1C(=O)NCC(COCP(=O)(O)OP(=O)(O)OP(=O)(O)O)Cn1cnc2c(N)ncnc21 (stereo not drawn) — IC50 (Calmodulin-sensitive adenylate cyclase (cya, Bacillus anthracis, UniProt P40136)): 140 ± 15 nM
CNc1nc2sc3c(N4CCNCC4)nnnc3c2c2c1CCCC2 — IC50 (bglR): 34 ± 2 nM
N#CC(CC1CCCNC1=O)NC(=O)C(CC1CC1)NC(=O)c1cc2cc(F)cc(F)c2[nH]1 (stereo not drawn) — IC50 (Procathepsin L (CTSL, Homo sapiens, UniProt P07711); enzyme activity, inhibitor; pH 5, with preincubation): 6000 nM
CC(C)C[C@@H]1NC(=O)[C@H](CCCNC(=N)N)NC(=O)[C@@H]2CCCN2C(=O)[C@@H]2CSSC[C@H](NC(=O)CNC(=O)[C@@H]3CCCN3C(=O)[C@H](CCCCN)NC(=O)[C@H](CC(=O)O)NC(=O)[C@@H](NC(=O)CN)C(C)C)C(=O)N[C@@H](CCCNC(=N)N)C(=O)N[C@@H](Cc3ccc(O)cc3)C(=O)N[C@@H](CC(C)C)C(=O)N[C@@H](Cc3ccccc3)C(=O)NCC(=O)NCC(=O)N[C@H]3CSSC[C@H](NC(=O)CNC1=O)C(=O)N[C@@H](CCCCN)C(=O)NCC(=O)N[C@@H](CCCCN)C(=O)NCC(=O)N[C@@H](Cc1c[nH]cn1)C(=O)N[C@@H](CC(=O)O)C(=O)N[C@@H](Cc1ccc(O)cc1)C(=O)N[C@H](C(=O)N[C@@H](C)C(=O)N[C@@H](Cc1c[nH]c4ccccc14)C(=O)N[C@@H](CC(=O)O)C(=O)NCC(=O)N[C@H](C(=O)N[C@@H](Cc1ccccc1)C(=O)N[C@@H](CO)C(=O)N[C@@H](CC(=O)O)C(=O)O)[C@@H](C)O)CSSC[C@H](NC(=O)[C@H](CC(=O)O)NC(=O)[C@H](CC(=O)O)NC(=O)[C@H](CC(=O)O)NC(=O)[C@H](CO)NC(=O)[C@H](CCCCN)NC3=O)C(=O)N2 — IC50 (Sodium channel protein type 1 subunit alpha (SCN1A, Homo sapiens, UniProt P35498); peak sodium current, inhibitor, automated patch clamp; HEK293; holding potential -80 mV, with: 0.1 % BSA): 550 nM
O=S(=O)(O)c1ccc(N=Nc2cc(Oc3ncc(Cl)cc3Cl)ccc2O)cc1 — IC50 (Ba71V-97, DNA complex (African swine fever virus, UniProt P42494); enzyme activity, inhibitor): 9300 ± 500 nM
CCC(C(=O)Nn1cccc1)n1cc(F)cc2nc(SCc3ccc(F)cc3)nc1-2 (stereo not drawn) — IC50 (Replicase polyprotein 1ab, papain-like protease (rep, Middle East respiratory syndrome-related coronavirus, UniProt K9N7C7); enzyme activity, inhibitor): > 100000 nM
Nc1nc(S)c2ncn(C3OC(COP(=O)(O)OP(=O)(O)OP(=O)(O)O)C(O)C3O)c2n1 (stereo not drawn) — IC50 (OPG122): > 200000 nM
Cc1cc(O)cc(O)c1C(=O)O[C@@H]1CC2=C(COC(CC(C)O)=C2)C(=O)[C@]1(C)O (stereo partly drawn) — IC50 (Neuraminidase (NA, Influenza A virus, UniProt Q6DPL2); influenza A virus H5N1): 165000 ± 3600 nM
Cc1ccc(N2CCN(C)CC2)cc1C(=O)NC1(c2ccc3c4c(cccc24)C(=O)N3)CC1 — IC50 (Replicase polyprotein 1a papain-like protease; enzyme activity, inhibitor): 44 nM

For quick reference, copied from above:
CC[C@H](C)[C@H](NC(=O)[C@H](CCCCN)NC(=O)[C@H](Cc1ccccc1)NC(=O)[C@H](CC(=O)O)NC(=O)[C@@H](NC(=O)[C@H](CC(N)=O)NC(=O)[C@@H](N)CO)[C@@H](C)CC)C(=O)N[C@@H](CCCCN)C(=O)N[C@@H](CCCCN)C(=O)O — IC50 (HLA class I histocompatibility antigen, A alpha chain, allele A*29:02 (Homo sapiens, UniProt P04439); biochemical): > 10000 nM
Nc1nc2c(nc(Br)n2C2OC(COP(=O)(O)OP(=O)(O)OP(=O)(O)O)C(O)C2O)c(=O)[nH]1 (stereo not drawn) — IC50 (OPG122): > 200000 nM
CC[C@H](C)[C@H](NC(=O)[C@H](Cc1c[nH]cn1)NC(=O)[C@H](Cc1ccc(O)cc1)NC(=O)[C@H](CCCCN)NC(=O)[C@@H]1CSSC[C@@H]2NC(=O)[C@H](CCC(=O)O)NC(=O)[C@H](CC(=O)O)NC(=O)[C@H](C)NC(=O)CNC(=O)[C@H](Cc3ccc(O)cc3)NC(=O)[C@H](CCCCN)NC(=O)[C@@H]3CSSC[C@H](NC(=O)[C@H](C(C)C)NC(=O)[C@H](Cc4ccc(O)cc4)NC(=O)CNC(=O)[C@H](CCCCN)NC(=O)[C@H](CSSC[C@H](NC(=O)[C@@H](N)CO)C(=O)N[C@@H](CCCCN)C(=O)NCC(=O)N[C@@H](Cc4c[nH]c5ccccc45)C(=O)N[C@@H](Cc4ccccc4)C(=O)N[C@@H](CC(N)=O)C(=O)N[C@@H](CCC(=O)O)C(=O)N3)NC2=O)C(=O)N[C@@H](CO)C(=O)N[C@@H](CCCCN)C(=O)N[C@@H](CCCNC(=N)N)C(=O)N[C@@H](CC(=O)O)C(=O)NCC(=O)N[C@@H](Cc2c[nH]c3ccccc23)C(=O)N1)C(=O)N[C@@H](CC(N)=O)C(=O)O — IC50 (SCN9A; ion current, inhibitor, patch clamp): 1030 nM
